Results of several laboratories.
Protocols differ between the studies behind these lines. “And” joins repeats or separate records; there may be more than shown. Numbers after ± are the reported error.
Cell line: HT-29

For O=C(/C=C/c1ccc(O)c2oc(-c3ccc(O)c(O)c3)cc12)O[C@H](Cc1ccc(O)c(O)c1)C(=O)O, “maximal DMR response” read over 1500 pm (agonist, dynamic mass redistribution).
With NCCC(=O)N[C@@H](Cc1c[nH]cn1)C(=O)N[C@@H](Cc1c[nH]cn1)C(=O)NCCC(=O)O the viability was 35% (MTT; 10 µg/mL, 6 h).
O=C(Cc1cccc(C(F)(F)F)c1)Nc1cc(Oc2cc(CO)c3nc(NC(=O)C4CC4)sc3c2)ccc1F gave an EC50 of over 10 µM (necroptosis, CellTiter-Glo; together with: TNF, SMAC mimetic and zVAD (TSZ)).
The growth of CC(=O)OC[C@H]1O[C@@H](Sc2sc(C(=O)c3ccc(C)cc3)c(N)c2-c2nc3ccccc3s2)[C@H](OC(C)=O)[C@@H](OC(C)=O)[C@@H]1OC(C)=O is reported as 59.5% (SRB; 10 µM, 48 h; relative to: untreated).
COc1cc(CNC(=O)C[C@H](C)CCC=C(C)C)ccc1OCc1cn(-c2ccc(Cl)c(Cl)c2)nn1 gave a growth percent of 78.3% (SRB; 10 µM, 48 h).
Cc1cc(Oc2ccc(F)c(NC(=O)Cc3cccc(C(F)(F)F)c3)c2)cc2sc(NC(=O)C3CC3)nc12 gave an EC50 of over 10 µM (necroptosis, CellTiter-Glo; together with: TNF, SMAC mimetic and zVAD (TSZ)).
The GI50 of CC(=C(c1ccc(O)cc1)c1ccc(Cl)cc1)c1ccc(Cl)cc1 is reported as 0.85 µM (cell growth or viability, SRB).
For O=C(O)CCNC(=O)[C@H](Cc1c[nH]cn1)NC(=O)[C@H](Cc1c[nH]cn1)NC(=O)CCNC(=O)[C@@H]1CCCN1, the viability was 34.9% (MTT; 10 µg/mL, 6 h).
For NS(=O)(=O)c1ccc(NC(=O)NN[C@@H]2O[C@H](CO)[C@H](O)[C@H](O)[C@H]2O)cc1, the IC50 was over 100 µM (cell growth or viability, MTT; 96 h).
The necrotic cells of C=C1CC(OC(=O)C(C)(O)CCl)C2C(=C)C(=O)OC2C2C1CC(O)C2(O)CCl (centres unmarked) is reported as 23.6% (annexin V/PI; concentration not given, 48 h).
With COC(=O)c1cc(Oc2ccc(F)c(NC(=O)Cc3cccc(C(F)(F)F)c3)c2)cc2sc(NC(=O)C3CC3)nc12 the EC50 was over 10 µM (necroptosis, CellTiter-Glo; together with: TNF, SMAC mimetic and zVAD (TSZ)).
The growth percent of COc1cc(CNC(=O)C[C@H](C)CCC=C(C)C)ccc1OCc1cn(-c2ccccc2)nn1 is reported as 99.5% (SRB; 10 µM, 48 h).
CC(O)c1c(Oc2ccc(F)c(NC(=O)Cc3cccc(C(F)(F)F)c3)c2)ccc2nc(NC(=O)C3CC3)sc12 (centres unmarked) has an EC50 of 0.045 ± 0.009 µM (necroptosis, CellTiter-Glo; together with: TNF, SMAC mimetic and zVAD (TSZ)).
CC/C=C\C/C=C\C/C=C\C/C=C\C/C=C\C/C=C\CCC(=O)Nc1ccn(C2OC(CO)C(O)C2(F)F)c(=O)n1 (centres unmarked) gave a TGI of 17.6 µM (NCI60 screen).
COc1cc2ncc3c(c2cc1-c1cn(C)nc1C)n(-c1c(F)cncc1OC)c(=O)n3C — result for CHK1 phosphorylation: “no effect” (ATR-CHK1 signaling; up to 30 µM, together with: hydroxyurea).
CC12CCCC(n3cc(C(=O)N4CCCC(N)C4)nn3)(C1)C1CC(C)(C)C1CC2 (centres unmarked) has an apoptotic cells of 11.9% (annexin V/PI flow cytometry; 2.5 µM, 48 h).
O=C(Cc1cccc(C(F)(F)F)c1)Nc1cc(Oc2cc3sc(NC(=O)C4CC4)nc3cc2Cl)ccc1F gave an EC50 of 0.044 ± 0.007 µM (necroptosis, CellTiter-Glo; together with: TNF, SMAC mimetic and zVAD (TSZ)).
O=C(/C=C(O)/C=C/c1cccs1)/C=C/c1cccs1 gave an intracellular ROS of 111 ± 14.8% (DCFH-DA, SRB-normalized; 1 µM; relative to: untreated cells).
The EC50 of O=C(Cc1cccc(C(F)(F)F)c1)Nc1cc(Oc2c(Br)cc3nc(NC(=O)C4CC4)sc3c2Br)ccc1F is reported as 0.38 ± 0.01 µM (necroptosis, CellTiter-Glo; together with: TNF, SMAC mimetic and zVAD (TSZ)).
The growth of CC(=O)OC[C@H]1O[C@@H](Sc2sc(C(=O)c3ccc(Br)cc3)c(N)c2-c2nc3ccccc3s2)[C@H](OC(C)=O)[C@@H](OC(C)=O)[C@H]1OC(C)=O is reported as 99.7% (SRB; 10 µM, 48 h; relative to: untreated).
N#Cc1c(N)nc(N)nc1OCC1CCCCC1 has a GI50 of < 20 µM and 14 µM (cell growth or viability, SRB; 72 h).
COc1cc(CNC(=O)C[C@H](C)CCC=C(C)C)ccc1OCc1cn(-c2ccccc2F)nn1 has a growth percent of 97.4% (SRB; 10 µM, 48 h).
For CO[C@@H]1[C@@H](O[C@@H]2O[C@H](C)[C@@H](O[C@H]3C[C@@](C)(O)[C@@H](OC(=O)/C=C/c4ccc(C(F)(F)F)cc4)[C@H](C)O3)[C@H](N(C)C)[C@H]2O)[C@@H](CC=O)C[C@@H](C)[C@@H](O[C@H]2CC[C@H](N(C)C)[C@@H](C)O2)/C=C/C=C/C[C@@H](C)OC(=O)C[C@H]1O, the IC50 was 2.32 µM (cell growth or viability, CCK-8; 72 h).
With COc1cc(CNC(=O)C[C@H](C)CCC=C(C)C)ccc1OCc1cn(-c2cccc([N+](=O)[O-])c2)nn1 the growth percent was 100% (SRB; 10 µM, 48 h).
N[C@@H](Cc1c[nH]cn1)C(=O)NCCC(=O)NCCC(=O)N[C@@H](Cc1c[nH]cn1)C(=O)O gave a viability of 26.5% (MTT; 10 µg/mL, 6 h).
The EC50 of O=C(Cc1cccc(C(F)(F)F)c1)Nc1cc(Oc2ccc3nc(NC(=O)C4CC4)sc3c2C(=O)NC2CC2)ccc1F is reported as 1.04 ± 0.184 µM (necroptosis, CellTiter-Glo; together with: TNF, SMAC mimetic and zVAD (TSZ)).
For COc1cc(CNC(=O)C[C@H](C)CCC=C(C)C)ccc1OCc1cn(-c2cccc(Cl)c2)nn1, the growth percent was 97.3% (SRB; 10 µM, 48 h).
The EC50 of O=C(Cc1cccc(C(F)(F)F)c1)Nc1cc(Oc2ccc3nc(NC(=O)C4CC4)sc3c2CO)ccc1F is reported as 0.034 ± 0.001 µM (necroptosis, CellTiter-Glo; together with: TNF, SMAC mimetic and zVAD (TSZ)).
For C#CCN(CC(=O)O[C@H]1[C@H](C)O[C@@H](O[C@H]2[C@H](N(C)C)[C@@H](O)[C@H](O[C@H]3[C@@H](CC=O)C[C@@H](C)[C@@H](O[C@H]4CC[C@H](N(C)C)[C@@H](C)O4)/C=C/C=C/C[C@@H](C)OC(=O)C[C@@H](O)[C@@H]3OC)O[C@@H]2C)C[C@@]1(C)O)C(=O)c1ccc(C(F)(F)F)cc1, the IC50 was 0.71 µM (cell growth or viability, CCK-8; 72 h).

Some of these lines once more:
CC12CCCC(n3cc(C(=O)N4CCCC(N)C4)nn3)(C1)C1CC(C)(C)C1CC2 (centres unmarked) has an apoptotic cells of 11.9% (annexin V/PI flow cytometry; 2.5 µM, 48 h).
O=C(Cc1cccc(C(F)(F)F)c1)Nc1cc(Oc2cc3sc(NC(=O)C4CC4)nc3cc2Cl)ccc1F gave an EC50 of 0.044 ± 0.007 µM (necroptosis, CellTiter-Glo; together with: TNF, SMAC mimetic and zVAD (TSZ)).
O=C(/C=C(O)/C=C/c1cccs1)/C=C/c1cccs1 gave an intracellular ROS of 111 ± 14.8% (DCFH-DA, SRB-normalized; 1 µM; relative to: untreated cells).
